Results pooled from the literature.
Parts stem from different laboratories: compare values within a part only. Changes are numbered by the printed parent chain.

Set 1 — technique: DHFR PCA, deep sequencing; sample: yeast; added: (+)-ABA 4.8 µM; reference: wild-type fitted maximum; reading: higher = stronger binding
Target: ABI1, truncated, D143A, DHFR fusion (Arabidopsis thaliana)
Notes: methotrexate growth selection, single substitutions
Starting sequence: PYL1, truncated, DHFR fusion (Arabidopsis thaliana); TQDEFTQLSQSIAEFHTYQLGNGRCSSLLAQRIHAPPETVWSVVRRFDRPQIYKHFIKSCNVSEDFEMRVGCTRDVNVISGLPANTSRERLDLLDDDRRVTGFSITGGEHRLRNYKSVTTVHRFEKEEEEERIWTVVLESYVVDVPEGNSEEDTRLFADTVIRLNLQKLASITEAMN
| Change | relative binding score [%] |
| --- | --- |
| F5T | 60.5 |
| T39Q | 62 |
| T120Y | 1.59 |
| P146E | -0.49 |
| Q51A | 17.5 |
| N114M | 3.1 |
| V118I | 77.1 |

Set 2 — technique: universal PBM; form: double-stranded DNA, one strand shown; sample: in vitro; tested at: 600 nM; reading: higher = stronger binding
Target: Sal-like protein 4, full length isoform A (SALL4, Homo sapiens, UniProt Q9UJQ4, residues 1-1053)
Chain of UniProt Q9UJQ4 (whole entry, looked up): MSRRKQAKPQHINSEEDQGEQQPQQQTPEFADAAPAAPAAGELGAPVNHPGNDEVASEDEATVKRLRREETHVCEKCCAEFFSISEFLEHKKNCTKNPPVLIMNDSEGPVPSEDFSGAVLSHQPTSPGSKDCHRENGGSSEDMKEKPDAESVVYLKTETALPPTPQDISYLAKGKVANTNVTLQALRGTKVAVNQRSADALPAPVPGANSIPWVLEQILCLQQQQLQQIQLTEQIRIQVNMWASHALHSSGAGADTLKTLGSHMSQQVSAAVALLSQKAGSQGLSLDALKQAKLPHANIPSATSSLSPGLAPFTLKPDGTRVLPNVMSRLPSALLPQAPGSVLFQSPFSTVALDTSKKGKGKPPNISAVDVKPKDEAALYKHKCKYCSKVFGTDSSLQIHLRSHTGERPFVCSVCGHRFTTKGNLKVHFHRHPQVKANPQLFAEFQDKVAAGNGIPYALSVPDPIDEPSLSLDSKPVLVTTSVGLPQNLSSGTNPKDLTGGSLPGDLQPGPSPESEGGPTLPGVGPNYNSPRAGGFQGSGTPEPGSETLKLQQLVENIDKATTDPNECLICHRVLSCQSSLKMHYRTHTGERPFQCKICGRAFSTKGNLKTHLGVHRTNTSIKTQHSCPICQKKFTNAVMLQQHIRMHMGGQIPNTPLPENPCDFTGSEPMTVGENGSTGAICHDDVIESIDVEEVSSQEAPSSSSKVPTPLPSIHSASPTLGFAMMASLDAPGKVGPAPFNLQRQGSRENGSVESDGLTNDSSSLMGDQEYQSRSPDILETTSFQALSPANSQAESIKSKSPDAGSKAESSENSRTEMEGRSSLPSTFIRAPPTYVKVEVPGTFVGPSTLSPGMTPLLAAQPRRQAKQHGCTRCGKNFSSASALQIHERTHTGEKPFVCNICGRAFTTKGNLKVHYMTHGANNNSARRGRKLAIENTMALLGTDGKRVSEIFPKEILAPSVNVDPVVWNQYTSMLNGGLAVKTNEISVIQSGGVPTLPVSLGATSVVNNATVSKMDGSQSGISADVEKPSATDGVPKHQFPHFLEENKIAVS
Notes: 8-mer, flanks averaged, mean of replicates
| Oligonucleotide | E-score |
| --- | --- |
| AACACACC | 0.0216 |
| GAGAACAC | -0.164 |
| AGATAGAT | 0.0976 |
| ATCACCTC | 0.0549 |
| ATCACGCC | -0.134 |
| GCATAACA | 0.242 |
| ATCTTTGC | 0.084 |
| CAGGCAAA | 0.147 |
| CCTCCTAG | -0.0856 |
| CGTTCGAC | -0.152 |

Set 3 — technique: protein binding microarray; form: double-stranded DNA, one strand shown; sample: in vitro; tested at: not given; reference: not given; reading: higher = stronger binding
Target: Histone acetyltransferase KAT6A, both winged helices, GST fusion (KAT6A, Homo sapiens, UniProt Q92794, residues 1-181)
Notes: 8-mer, flanks averaged, mean of 2 arrays, mostly near background
Construct (chain): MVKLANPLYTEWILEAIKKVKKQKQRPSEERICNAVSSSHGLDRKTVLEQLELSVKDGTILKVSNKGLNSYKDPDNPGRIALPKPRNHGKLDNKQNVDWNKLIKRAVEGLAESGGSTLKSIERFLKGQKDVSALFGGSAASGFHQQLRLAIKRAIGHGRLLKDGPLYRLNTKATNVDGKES
| Oligonucleotide | E-score |
| --- | --- |
| AACAGTAG | -0.0261 |
| ACATTTAC | -0.0572 |
| AGTACAGC | -0.218 |
| CCGTTTAC | 0.233 |
| GCTGTGAC | 0.0703 |
| CTCAGTCA | -0.205 |
| ATGCATGC | 0.0109 |
| CGAAGCCC | -0.0415 |
| AAGAGCTA | -0.206 |
| GAGTATGA | 0.0258 |
| CTGAGGTC | -0.109 |
| TTAGGGAA | -0.177 |
| CTATGGTA | 0.0218 |
| ATGTGCGA | 0.0496 |
| AATGGGCA | -0.118 |
| CTATGGGC | -0.149 |
| CGCAGTGA | 0.199 |

Set 4 — target: CCND1, cyclin fold, Cln2 fusion (human); technique: yeast growth competition, sequencing; sample: yeast; notes: weak parent motif; reference: not given; reading: higher = stronger binding
Starting sequence: GMNC docking peptide (human); KNAKRNLSSEFAN; partner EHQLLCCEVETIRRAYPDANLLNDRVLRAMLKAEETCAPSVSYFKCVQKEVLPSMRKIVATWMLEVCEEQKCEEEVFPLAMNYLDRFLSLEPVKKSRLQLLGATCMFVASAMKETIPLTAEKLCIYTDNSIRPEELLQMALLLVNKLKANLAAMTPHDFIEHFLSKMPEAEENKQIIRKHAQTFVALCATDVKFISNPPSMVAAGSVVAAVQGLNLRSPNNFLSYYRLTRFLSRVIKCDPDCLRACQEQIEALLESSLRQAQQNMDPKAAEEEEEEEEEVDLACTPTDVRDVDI
| Change | normalised enrichment score |
| --- | --- |
| A12T | 0.517 |
| E10T | 0.0179 |
| N2F | 0.355 |
| K4M | 0.57 |
| N2V | 0.0243 |
| L7S | -0.0113 |
| A3T | 0.705 |
| E10L | -0.203 |

Mixed results
| Molecule | target | test | system | setting | how to read | endpoint | result |
| --- | --- | --- | --- | --- | --- | --- | --- |
| PhoQ, residues 284 288 289 292 302 303 SMMNNA | PhoP, residues 12 14 15 18 19 VHSCL (Escherichia coli, UniProt P23836) | Sort-seq, measured: YFP reporter | E. coli | PhoQ-PhoP variant library, added: 10 µM Mg2+ | reference: high Mg2+ state, higher = stronger signaling | fold induction | 13.1 |
